# Published values gathered from unrelated publications.
# Protocols differ between the studies behind these lines. ± marks the error that the study gave.
SMILES,assay,test system,conditions,tissue uptake [%ID/g]
N=C(N)NCCC[C@@H]1NC(=O)[C@H](CCCCNC(=O)CCOCCOCCOCCOCCNC(=O)CC[C@H](NC(=O)CCOCCOCCOCCOCCNC(=O)CC[C@H](NC(=O)CN2CCN(CC(=O)O)CCN(CC(=O)O)CCN(CC(=O)O)CC2)C(=O)NCCOCCOCCOCCOCCC(=O)N[C@@H](CCC(=O)NCCOCCOCCOCCOCCC(=O)NCCCC[C@@H]2NC(=O)[C@@H](Cc3ccccc3)NC(=O)[C@H](CC(=O)O)NC(=O)CNC(=O)[C@H](CCCNC(=N)N)NC2=O)C(=O)NCCOCCOCCOCCOCCC(=O)NCCCC[C@@H]2NC(=O)[C@@H](Cc3ccccc3)NC(=O)[C@H](CC(=O)O)NC(=O)CNC(=O)[C@H](CCCNC(=N)N)NC2=O)C(=O)NCCOCCOCCOCCOCCC(=O)NCCCC[C@@H]2NC(=O)[C@@H](Cc3ccccc3)NC(=O)[C@H](CC(=O)O)NC(=O)CNC(=O)[C@H](CCCNC(=N)N)NC2=O)NC(=O)[C@@H](Cc2ccccc2)NC(=O)[C@H](CC(=O)O)NC(=O)CNC1=O [indium-111 labelled],,"female athymic nude mice, muscle","intravenous, 3 µCi, 0.5 h, U-87 MG glioma xenograft",1.79 ± 0.11
N=C(N)NCCC[C@@H]1NC(=O)[C@H](CCCCNC(=O)CC[C@H](NC(=O)[C@H](CCCCNC(=O)c2ccc(NN)nc2)NC(=O)c2ccc(NN)nc2)C(=O)NCCCC[C@@H]2NC(=O)[C@@H](Cc3ccccc3)NC(=O)[C@H](CC(=O)O)NC(=O)CNC(=O)[C@H](CCCNC(=N)N)NC2=O)NC(=O)[C@@H](Cc2ccccc2)NC(=O)[C@H](CC(=O)O)NC(=O)CNC1=O [technetium-99m labelled],,"female athymic nude mice, blood","intravenous, 0.1 MBq, 1 h, U-87 MG glioma xenograft",0.81 ± 0.04
N=C(N)NCCC[C@@H]1NC(=O)[C@H](CC(=O)NC23CNCCNCC(N)(CNCCNC2)CNCCNC3)NC(=O)[C@@H](Cc2ccccc2)NC(=O)[C@H](CC(=O)O)NC(=O)CNC1=O [copper-64 labelled],,"male nude tumour-bearing mice, kidney","iv, 10 µCi, 4 h",3.17 ± 0.96
N=C(N)NCCC[C@@H]1NC(=O)[C@H](CCCCNC(=O)CCOCCOCCOCCOCCNC(=O)CC[C@H](NC(=O)CCOCCOCCOCCOCCNC(=O)[C@H](CCCCNC(=O)c2ccc(NN)nc2)NC(=O)c2ccc(NN)nc2)C(=O)NCCOCCOCCOCCOCCC(=O)NCCCC[C@@H]2NC(=O)[C@@H](Cc3ccccc3)NC(=O)[C@H](CC(=O)O)NC(=O)CNC(=O)[C@H](CCCNC(=N)N)NC2=O)NC(=O)[C@@H](Cc2ccccc2)NC(=O)[C@H](CC(=O)O)NC(=O)CNC1=O [technetium-99m labelled],,"female athymic nude mice, muscle","intravenous, 0.1 MBq, 1 h, U-87 MG glioma xenograft",0.85 ± 0.11
CSCC[C@H](NC(=O)[C@H](CC(C)C)NC(=O)[C@H](Cc1c[nH]cn1)NC(=O)CNC(=O)[C@@H](NC(=O)[C@H](C)NC(=O)[C@H](Cc1c[nH]c2ccccc12)NC(=O)[C@H](CCC(N)=O)NC(=O)CNC(=O)[C@H](CO)NC(=O)CNC(=O)CCCCCCCNC(=O)CCC(=O)Nc1ccc(CNC23CNCCNCC(N)(CNCCNC2)CNCCNC3)cc1)C(C)C)C(N)=O [copper-64 labelled],,"female SCID mice, PC-3 xenograft, tumour","intravenous, 0.6 MBq, 1 h",8.54 ± 0.806
N=C(N)NCCC[C@@H]1NC(=O)[C@H](CCCCNC(=O)CC[C@H](NC(=O)CCOCCOCCOCCOCCNC(=O)CN2CCN(CC(=O)O)CCN(CC(=O)O)CCN(CC(=O)O)CC2)C(=O)NCCCC[C@@H]2NC(=O)[C@@H](Cc3ccccc3)NC(=O)[C@H](CC(=O)O)NC(=O)CNC(=O)[C@H](CCCNC(=N)N)NC2=O)NC(=O)[C@@H](Cc2ccccc2)NC(=O)[C@H](CC(=O)O)NC(=O)CNC1=O [indium-111 labelled],,"female athymic nude mice, eyes","intravenous, 3 µCi, 0.5 h, U-87 MG glioma xenograft",0.94 ± 0.18
CC(C)C[C@H](NC(=O)[C@H](Cc1ccc(O)cc1)NC(=O)[C@@H](CCCNC(=N)N)NC(=O)[C@@H](CO)NC(=O)[C@H](Cc1ccccc1)NC(=O)[C@H](CC1CCCCC1)NC(=O)[C@H](CC(=O)O)NC(=O)CCC(C(=O)O)N1CCCN2CCN(CCCN(CC(=O)O)CC2)CC1)C(=O)N[C@@H](Cc1c[nH]c2ccccc12)C(=O)N[C@@H](CO)C(=O)O (some centres unmarked) [copper-64 labelled],,"female NMRI nude mice, kidney",22 h p.i.,4.8 ± 0.7
CSCC[C@H](NC(=O)[C@H](CC(=O)O)NC(=O)[C@H](CO)NC(=O)[C@H](Cc1c[nH]cn1)NC(=O)[C@H](Cc1c[nH]c2ccccc12)NC(=O)CN1CCN(CC(=O)O)CCN(CC(=O)O)CCN(CC(=O)O)CC1)C(=O)N[C@@H](CCC(=O)O)C(=O)N[C@@H](Cc1c[nH]c2ccccc12)C(=O)N[C@@H](Cc1c[nH]c2ccccc12)C(=O)N[C@@H](Cc1ccc(O)cc1)C(=O)N[C@@H](CC(C)C)C(=O)N[C@@H](CC(C)C)C(=O)NCC(=O)N[C@@H](CCCCNC(=O)COCCOCCNC(=O)CCN1C(=O)C=CC1=O)C(=O)O [copper-64 labelled],gamma counting,"nude mice bearing HT-29 tumours, blood","intravenous, 0.74 MBq (0.02 nmol), 4 h",3.53
CSCC[C@H](NC(=O)[C@H](CC(C)C)NC(=O)[C@H](Cc1c[nH]cn1)NC(=O)CNC(=O)[C@@H](NC(=O)[C@H](C)NC(=O)[C@H](Cc1c[nH]c2ccccc12)NC(=O)[C@H](CCC(N)=O)NC(=O)[C@H](CC(N)=O)NC(=O)CNC(=O)[C@H](Cc1ccc(O)cc1)NC(=O)[C@H](CCCNC(=N)N)NC(=O)[C@H](CCC(N)=O)NC(=O)[C@@H]1CCCN1C(=O)CN1CCN(CC(=O)O)CCN(CC(=O)O)CCN(CC(=O)O)CC1)C(C)C)C(N)=O [indium-111 labelled],,"male Swiss nu/nu mice, PC-3 tumour, kidney","intravenous, 10 pmol, 24 h",2.8 ± 0.9
N=C(N)NCCC[C@@H]1NC(=O)[C@H](CCCCNC(=O)CNC(=O)CNC(=O)CNC(=O)CC[C@H](NC(=O)CCOCCOCCOCCOCCNC(=O)CC[C@H](NC(=O)CN2CCN(CC(=O)O)CCN(CC(=O)O)CCN(CC(=O)O)CC2)C(=O)NCCOCCOCCOCCOCCC(=O)N[C@@H](CCC(=O)NCC(=O)NCC(=O)NCC(=O)NCCCC[C@@H]2NC(=O)[C@@H](Cc3ccccc3)NC(=O)[C@H](CC(=O)O)NC(=O)CNC(=O)[C@H](CCCNC(=N)N)NC2=O)C(=O)NCC(=O)NCC(=O)NCC(=O)NCCCC[C@@H]2NC(=O)[C@@H](Cc3ccccc3)NC(=O)[C@H](CC(=O)O)NC(=O)CNC(=O)[C@H](CCCNC(=N)N)NC2=O)C(=O)NCC(=O)NCC(=O)NCC(=O)NCCCC[C@@H]2NC(=O)[C@@H](Cc3ccccc3)NC(=O)[C@H](CC(=O)O)NC(=O)CNC(=O)[C@H](CCCNC(=N)N)NC2=O)NC(=O)[C@@H](Cc2ccccc2)NC(=O)[C@H](CC(=O)O)NC(=O)CNC1=O [indium-111 labelled],,"female athymic nude mice, lungs","intravenous, 3 µCi, 4 h, U-87 MG glioma xenograft",1.91 ± 0.27
CCCC[C@H](NC(=O)[C@H](Cc1cccs1)NC(=O)[C@H](Cc1c[nH]cn1)NC(=O)CCNC(=O)[C@@H](NC(=O)[C@H](C)NC(=O)[C@H](Cc1c[nH]c2ccccc12)NC(=O)[C@H](CCC(N)=O)NC(=O)[C@H](Cc1cccs1)NC(=O)CN1CCC(NC(=O)CN(CCN(CCN(CC(=O)O)CC(=O)O)CC(=O)O)CC(=O)O)CC1)C(C)C)C(N)=O [indium-111 labelled],,"male Swiss nu/nu mice, PC-3 tumour, kidney","intravenous, 10 pmol, 4 h",1.2 ± 0.4
N=C(N)NCCC[C@@H]1NC(=O)[C@H](CCCCNC(=O)CCOCCOCCOCCOCCNC(=O)CC[C@H](NC(=O)CCOCCOCCOCCOCCNC(=O)c2ccc(NN)nc2)C(=O)NCCOCCOCCOCCOCCC(=O)NCCCC[C@@H]2NC(=O)[C@@H](Cc3ccccc3)NC(=O)[C@H](CC(=O)O)NC(=O)CNC(=O)[C@H](CCCNC(=N)N)NC2=O)NC(=O)[C@@H](Cc2ccccc2)NC(=O)[C@H](CC(=O)O)NC(=O)CNC1=O [technetium-99m labelled],,"female athymic nude mice, U-87 MG glioma xenograft, blood","intravenous, 2.5 µCi, 60 min",0.27 ± 0.08
N=C(N)NCCC[C@@H]1NC(=O)[C@H](CCCCNC(=O)CCOCCOCCOCCOCCNC(=O)CN2CCN(CC(=O)O)CCN(CC(=O)O)CCN(CC(=O)O)CC2)NC(=O)[C@@H](Cc2ccccc2)NC(=O)[C@H](CC(=O)O)NC(=O)CNC1=O [indium-111 labelled],,"female athymic nude mice, eyes","intravenous, 3 µCi, 4 h, U-87 MG glioma xenograft",0.24 ± 0.01
N=C(N)NCCC[C@H](NC(=O)[C@H](CCCCN)NC(=O)[C@H](CCC(N)=O)NC(=O)CCOCCOCCOCCNC(=O)CN1CCN(CC(=O)O)CCN(CC(=O)O)CCN(CC(=O)O)CC1)C(=O)N[C@@H](CCCCN)C(=O)N[C@@H](CCCNC(=N)N)C(=O)N[C@@H](CCCCN)C(=O)N[C@@H](CCCCN)C(=O)N[C@@H](CO)C(=O)N[C@@H](CCCNC(=N)N)C(=O)N[C@@H](Cc1ccc(O)cc1)C(=O)N[C@@H](CCCCN)C(=O)N[C@@H](CO)C(=O)O [copper-64 labelled],,"male C57BL/6 mice, B16-F10 tumour, heart","intravenous, 60 min",0.59 ± 0.04

# For quick reference, copied from above:
SMILES,assay,test system,conditions,tissue uptake [%ID/g]
N=C(N)NCCC[C@@H]1NC(=O)[C@H](CCCCNC(=O)CCOCCOCCOCCOCCNC(=O)CN2CCN(CC(=O)O)CCN(CC(=O)O)CCN(CC(=O)O)CC2)NC(=O)[C@@H](Cc2ccccc2)NC(=O)[C@H](CC(=O)O)NC(=O)CNC1=O [indium-111 labelled],,"female athymic nude mice, eyes","intravenous, 3 µCi, 4 h, U-87 MG glioma xenograft",0.24 ± 0.01
N=C(N)NCCC[C@H](NC(=O)[C@H](CCCCN)NC(=O)[C@H](CCC(N)=O)NC(=O)CCOCCOCCOCCNC(=O)CN1CCN(CC(=O)O)CCN(CC(=O)O)CCN(CC(=O)O)CC1)C(=O)N[C@@H](CCCCN)C(=O)N[C@@H](CCCNC(=N)N)C(=O)N[C@@H](CCCCN)C(=O)N[C@@H](CCCCN)C(=O)N[C@@H](CO)C(=O)N[C@@H](CCCNC(=N)N)C(=O)N[C@@H](Cc1ccc(O)cc1)C(=O)N[C@@H](CCCCN)C(=O)N[C@@H](CO)C(=O)O [copper-64 labelled],,"male C57BL/6 mice, B16-F10 tumour, heart","intravenous, 60 min",0.59 ± 0.04
